Assay results gathered from unrelated publications.
Lines come from different studies, so protocols differ. Values joined by “and” are separate records of one study, mostly repeats; a detail may differ. ± gives the spread as reported. ≈ marks a conversion by molar mass, not a printed value.

| SMILES | tested on | test | test system | setting | how to read | measurement | result |
| --- | --- | --- | --- | --- | --- | --- | --- |
| Cc1cc(OC(C)C)ccc1C(=O)C(C)(C)NC(=O)c1sccc1C | Botrytis cinerea | germ tube elongation | B05.10 | 1 µg/mL |  | inhibition | 95.8 ± 4.4% |
| Cc1cc(F)cc2c(CCC(=O)N[C@@H]3C(=O)NC[C@H]3O)c(-c3ccc(F)cc3)[nH]c12 |  |  | mice, APOL1 G2, single copy | oral, 30 mg/kg twice daily, dosing from day 6, with: IFNγ plasmid injection |  | UACR AUC days 6-14 | 56700 µg·days/mg and 25200 µg·days/mg and 4540 µg·days/mg and 2780 µg·days/mg and 4990 µg·days/mg |
| Oc1ccccc1-c1n[nH]cc1-c1ccnc2ccccc12 | CAK1 (Candida albicans) | kinase binding, MIB/MS competition | Candida albicans lysate | 10 µM | baseline: DMSO | log2 fold change | 0.29 |
| CC(C)NCC(O)c1ccc(O)c(O)c1 (stereo not shown) |  |  | ventricular cardiomyocytes, C57BL/6 mouse | dose not given, 0.572 s |  | sarcomere length | 1.56 µm |
| CN[C@H](CC(C)C)C(=O)N[C@H]1C(=O)N[C@@H](CC(N)=O)C(=O)N[C@H]2C(=O)N[C@H]3C(=O)N[C@H](C(=O)N[C@H](C(=O)O)c4cc(O)cc(O)c4-c4cc3ccc4O)[C@H](O)c3ccc(c(Cl)c3)Oc3cc2cc(c3O[C@@H]2O[C@H](CO)[C@@H](O)[C@H](O)[C@H]2O[C@H]2C[C@](C)(N)[C@H](O)[C@H](C)O2)Oc2ccc(cc2Cl)[C@H]1O | Enterococcus faecalis |  | compound-intermediate | pH 8.5 |  | MIC50 | 4 µg/mL (≈ 2.76 µM) |
| Cn1cc(-c2ccc(-c3cncc(Cl)c3N3CCC4(CCNC4=O)CC3)cc2)cn1 | COLO 205 | gene expression, microarray, item: GDF15 (PDF) mRNA |  | concentration not given, 2 h | baseline: untreated cells | log2 fold change | 2.15 |
| OC(CCN1CCCCC1)(c1ccccc1)C1CC2C=CC1C2 (stereo not shown) |  | resting-state EEG | healthy elderly humans | oral, 4 mg, eyes open, LS mean | baseline: baseline | change in EEG Beta1-power Pz-O2 | -5% |
| c1coc(-c2n[nH]cc2-c2ccnc3ccccc23)c1 | CDC5 (Candida albicans) | kinase binding, MIB/MS competition | Candida albicans lysate | 1 µM | baseline: DMSO | log2 fold change | -0.05 |
| CC(=O)N(C)[C@H]1CCN(C(=O)c2cnc3c(c2)C[C@](C)(c2ccc(F)cc2)N3)C1 | vanin activity | LC-MS/MS | human, plasma | 15 mg, 4 h post-dose, median | baseline: baseline | pantetheine increase | 1250% |
| CC(=O)NC[C@H]1CN(c2ccc(N3CCOCC3)c(F)c2)C(=O)O1 | Enterococcus faecalis | agar dilution | vancomycin-intermediate |  |  | MIC90 | 4 µg/mL (≈ 11.9 µM) |

For quick reference, copied from above:
| SMILES | tested on | test | test system | setting | how to read | measurement | result |
| --- | --- | --- | --- | --- | --- | --- | --- |
| Cn1cc(-c2ccc(-c3cncc(Cl)c3N3CCC4(CCNC4=O)CC3)cc2)cn1 | COLO 205 | gene expression, microarray, item: GDF15 (PDF) mRNA |  | concentration not given, 2 h | baseline: untreated cells | log2 fold change | 2.15 |
